Assay results pooled from the literature.
A part holds a random share of what one study measured.

Set 1
Target: Prothrombin, mature alpha-thrombin (F2, Homo sapiens, UniProt P00734)
Technique: aptamer microarray, sandwich
Form: DNA with 2'F-ANA
Matrix: in vitro
Concentration: 200 nM
Setting: whole 15-mer aptamer, many near background
Added: Cy3 exosite-II aptamer, 400 nM
Direction: higher = stronger binding
Strand: GGTTGGTGTGGTTGG
| Modification | mean fluorescence intensity [a.u.] |
| --- | --- |
| 2'F-ANA at 1 2 3 6 8 9 13 14 15 | 75.3 |
| 2'F-ANA at 4 5 7 10 15 | 57.1 |
| 2'F-ANA at 1 2 3 5 6 7 8 10 11 12 13 14 15 | 51.3 |
| 2'F-ANA at 3 5 6 8 10 11 12 15 | 101 |
| 2'F-ANA at 1 4 7 8 13 14 15 | 117 |
| 2'F-ANA at 2 4 5 6 8 9 11 13 | 52 |
| 2'F-ANA at 1 2 3 5 7 12 13 14 15 | 46 |
| 2'F-ANA at 1 2 3 4 5 6 7 8 9 10 11 14 15 | 64.4 |
| 2'F-ANA at 6 7 8 10 15 | 164 |
| 2'F-ANA at 5 6 7 8 10 14 | 45.3 |
| 2'F-ANA at 2 3 5 6 7 8 9 10 14 15 | 53.5 |
| 2'F-ANA at 2 3 5 7 11 12 14 | 75.3 |
| 2'F-ANA at 1 2 6 8 9 12 14 15 | 69.1 |
| 2'F-ANA at 3 4 11 | 670 |
| 2'F-ANA at 2 4 7 11 13 15 | 237 |
| 2'F-ANA at 1 2 4 5 6 7 9 10 11 13 14 15 | 52.3 |
| 2'F-ANA at 1 4 6 7 8 10 11 13 14 15 | 45.7 |
| 2'F-ANA at 1 2 3 6 12 13 | 336 |
| 2'F-ANA at 1 6 7 10 13 15 | 50.5 |
| 2'F-ANA at 1 3 5 6 8 10 13 | 48.8 |
| 2'F-ANA at 1 5 6 7 11 12 13 | 68.5 |
| 2'F-ANA at 1 2 3 7 8 9 10 11 12 14 | 55.1 |

Set 2
Target: RNA binding protein fox-1 homolog 2, RRM domain, GST-SBP tag (RBFOX2, Homo sapiens, UniProt O43251-10, residues 100-194)
Technique: RNA Bind-n-Seq
Form: RNA
Matrix: in vitro
Concentration: 365 nM
Setting: natural RNA segment, single round, ends assumed
Reference: no-protein control
Direction: higher = stronger binding
Shared flanks, not repeated: GGGAGUUCUACAGUCCGACGAUC … UGGAAUUCUCGGGUGCCAA
Target sequence (chain): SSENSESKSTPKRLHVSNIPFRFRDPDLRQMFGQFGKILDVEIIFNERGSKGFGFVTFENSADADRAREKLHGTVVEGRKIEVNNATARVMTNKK
| Strand | RBNS enrichment (R) |
| --- | --- |
| GUCUACACUGGCAUAGCACGAGCCAUGUAAGCUUCUUUUUUUUCUAUGCAAGAGUAUUGAUGUAUGUGCUGAAUCUUCACAGACUUGUCAAUACACAGGCAGUAUUCUAA | 5.95 |
| CAGUAGAGGUCAGAGCUGGUUACCUGCCUUAGUUACAAGUGUCGGUUAUGUUCUGGGUCUUUGUAAUCGCUGAUCUCUGUAACAGAGCCUCUGUUUAUUUUUGCUUGUUG | 1.05 |
| AGACGAAAUAGUGACAUAAUAUAUUCUAUUUUUAUACUCUUCCUAUUUUUGUAGUGACCUGUUUAUGAGAUGCUGGUUUUCUACCCAACGGCCCUGCAGCCAGCUCACGU | 0.227 |
| AGUGUCCCACCCCUGGAGGGUUAAUCCCUAUCUCUUCCUUUUGACCCCUGACUUGUUCUGGCAAGGAACAGAAGUAAGGGUGUGAUCCAGCCCGUCCCCCUGGGACCCAU | 0.338 |
| CCUCCUUGUCCUGGAUUUCCAGCUCUCCCCAUGCCCCCUCCCUGAGCACCACCGGCACCGCCUCCCAAACAGGGCUGCUGGUUUCCGCAGCCACUGCUCCACCUCCCCCA | 1.18 |
| AUGUUACUCUAAAGACCCCAGCAACCCAGAGAGAGCCCUGCUUCCAUCUUCCCAGGGCAGGACCACAGUGGUAAAUCCUAAGGAUGGCCCAGGUGGCCUGUGUGAGCGCC | 0.364 |
| UAACCACUUUAUGGGCUUUUUGUUUUGCUUUGGCCCUUUGCUGCCAUUAUUACACACAGGAGAGCCAUUAUCAAAUGUUUUACAGAACAGCAGCGUUAGAGAGUGGGUUU | 0.362 |
| AUGAGUAGGUACCAGAUACCAACUCAGUAAUUAAUUUUGUAGCAUUGUCCCCAAGCUCUGGAUUUUUUUCUCUCCAGGACCCAAGUUUUAGGCAGUGAGUAAUGCUUAUA | 0.301 |
| GUUGAGGGUUCUUGCUUAAUUUAGAUCAAGUAUAAAAUUUGUAUGACUUCAAGUCUCAUUUUAUCUGAAAGGUUUUUUUCUCAUUUAAUCUGAUGUGGCAUUUUCGUCAU | 0.493 |
| CAGAUGUCUAACGGGAGCUUGCUUAAGGGGAAUGUUAGCAUUGCCAAGUGCGAUGGUGUUGCCUUUCCAUGGGAUAUUGCAUUUUCUUACACUACCCGAGAUGUCCAGAC | 0.463 |
| AGGCUUUCCAUUUAACAUGGAAUCCUUCUCCCCAAGAAGGCUUCUUCCUUGUUUUAGAGGAAGGUACUGCCUUUUUGGACUUAGGGAUGUCAUGGGACCUCAGUAACGAG | 0.232 |
| CCUCCCCAGCUUCCUGCCCAAAGAGCCCCACAUUCAAGCCAACUUGAGGGAAGGGGGCGUCUCGUCAGCUGGUCCCUGCUAGGGAGCUAUUGAUGUGCAAUAUUAGAAAG | 0.194 |

Set 3
Target: Histone acetyltransferase KAT6A, winged helix 1, GST fusion (KAT6A, Homo sapiens, UniProt Q92794, residues 1-85)
Technique: protein binding microarray
Form: double-stranded DNA, one strand shown
Matrix: in vitro
Concentration: not given
Setting: 8-mer, flanks averaged, mean of 2 arrays, mostly near background
Reference: not given
Direction: higher = stronger binding
Construct (chain): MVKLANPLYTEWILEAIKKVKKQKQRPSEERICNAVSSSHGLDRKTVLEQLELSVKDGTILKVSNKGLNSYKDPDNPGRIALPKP
| Strand | E-score |
| --- | --- |
| GCAAACGC | 0.0926 |
| TCTGGCCA | -0.289 |
| ACGAGGAC | -0.109 |
| CACCCGTA | 0.303 |
| GAGCGTAC | 0.265 |
| AAAAATAG | -0.163 |
| CGACATCG | 0.0819 |
| AGAATCGG | 0.1 |
| GGACGCAA | 0.142 |
| GCCTCCCA | -0.185 |
| GAATATAA | -0.115 |
| ATGGCTCC | -0.0811 |
| GGAGGGCA | -0.0934 |
| AATGCTGC | -0.147 |
| AGCCATCC | -0.0493 |
| GAACGACC | -0.0927 |
| CAGAGTGC | -0.0768 |
| ATGCCAAC | -0.114 |
| ATGCTGGC | -0.144 |
| GTCAGAAC | -0.0417 |
| CGTGTATA | 0.165 |
| CAAGAGCA | -0.115 |

Set 4
Target: Hepatocyte nuclear factor 3-alpha (Foxa1, Mus musculus, UniProt P35582, residues 1-468, full length assumed)
Technique: EMSA with sequencing
Form: double-stranded DNA, one strand shown
Matrix: in vitro
Concentration: 10 and 20 nM
Setting: whole designed probe, mean of two concentrations, ends assumed
Reference: negative control set to 0
Direction: higher = stronger binding
Shared flanks, not repeated: GTGAGCGGTGCCCATTGATGGGGAAC … TTTCACTGGGATCGTGGGGAC
Target sequence (chain): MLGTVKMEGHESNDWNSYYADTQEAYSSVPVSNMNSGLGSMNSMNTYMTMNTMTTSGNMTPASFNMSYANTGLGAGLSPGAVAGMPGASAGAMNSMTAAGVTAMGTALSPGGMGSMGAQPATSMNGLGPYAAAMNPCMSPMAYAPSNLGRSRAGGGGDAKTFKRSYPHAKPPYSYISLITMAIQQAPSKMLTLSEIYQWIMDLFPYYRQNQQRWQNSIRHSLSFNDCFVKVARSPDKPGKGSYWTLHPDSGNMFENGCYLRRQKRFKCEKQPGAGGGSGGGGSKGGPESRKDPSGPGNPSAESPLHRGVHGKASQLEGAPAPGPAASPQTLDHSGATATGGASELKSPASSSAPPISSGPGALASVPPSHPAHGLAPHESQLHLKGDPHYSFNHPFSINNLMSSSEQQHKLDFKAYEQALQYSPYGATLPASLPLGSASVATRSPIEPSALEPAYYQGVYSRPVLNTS
| Strand | normalised bound fraction |
| --- | --- |
| CTCCAGGGTAGTTGTCCTTCCTGTGGCTGCTCACTGATCCAGGCTACTTTGATCTTGTGACTCAAAGTTCAACAAAATGTGGATGCGTCATTTTATTTACACTTCAATCTTACGAAATGGCCAGAAGGCCTCATCCAGTTGCAAGAAGTTTGGGAAATGTAGCCTTCCATATTTACAGGAATAAATGAAAAAC | 0.293 ratio |
| ATCTTCCCCCTCTTCCTTGCCCCACCAGCTCACCTTCCCGGGTTATTTGCAGATAGGAAAATAAATAAAGCCGGCATTCGTTAACCCTCTTCACGCGCATACTGCTGTTTGCTCTGCATCTAACATGGTCCTTACGCGAGGCGTGGCTCCGGGAGAGCAAAGCACCGTGTCAGGCGCATGATCCGGGCTCGCC | 0.355 ratio |
| AGGTGAATTGGCTGCTTCCATCCTGGCTTGGAACTTCAGACATAGAAGCCTTGGGACTTTCTCAGGACTTTCTCCAGACTGACTCATGCTTCAGCAAACAAGCATCTCTGTGGATCACGTGACCTTAGCCAGGGATGTTGGTGAAACTGTGTGTTGGTCTAGGTACCTAGCCCATGCTAGGTGCTCATCGAAT | 0.155 ratio |
| TGAGGACTGGAACATTATAGTTTTATATCTCACACTAACAGAAAACTCTTTGATATATTGCAATTATTCAATGCATGTTTAATAAATAATAAGTAAACATGGCATAAAAATAATTTTAATTGTGGACTTTTATTATTAAAACACTTTTAATTATTATTTAATTAACAATTTTAATTATGAAATCTGCATTCAA | 0.363 ratio |
| ATCTTCCCCCTCTTCCTTGCCCCACCAGCTCACCTTCCCGGGTATATTGGAGATAGTATTTATTTTCAAGCCGGCATTCGTTAACCCTCTTCTGGCGCAAACTGCACATTGGTCTGGATGAATCATGGTCCTTTGGCGACGCCAGGCTCCGGGAGAGCAAAGCACCGTGTCAGGGCCATGATCCGGGGTGGCC | 0.115 ratio |
| CGTGTCCTACCATGCGGCTTAAGACTTCTCCAAAACACCGTCCCCCCAAATCCAATAAAATTGCAAATTTCACTGTATTTCACAATATCCTAAATAATCTTGAACAGCATGCGTTTCTCTTCCTTGCATCAAATATTAATCTGCCCGTGGCCAGCGCCCGCTCCCCCGCGTGTGTGCGCACGCTGGGTAATCT | -0.0477 ratio |
| AACAGGAAATTCCTGGCTATTTTACAGATATAAGTACAGAATTTAAATATTCAAGCTTGTGATGAAAAGCGGCAAGGTGGTCGCAGTGTACAATGTAAACAAGTAGCTTTGGAAATGAACAAAGTCCTTGAGTGTTTTTCTTTATTAAGAAAGAACTCTCTTTCATTCCTTCCTGAAACATGATCACAGGTCA | 0.406 ratio |
| TTGAGTTTTTTCCACTTTTTGACTACTATGAATAATGCTTCTGTAAACATTCTTGTACAAGTTTCTTTGGGAAATATTTTTTCAGTTCTCCTGTGTGTACTTAGGAGTTGAATTGCTGAGTCATGTGGTAACTATGTTTAGCTTTTTGAGGAACTGCCAAACTATTTTCCAAAATGACTGCACCATTTTACAA | 0.374 ratio |

Excerpt of the above (set 3):
| Strand | E-score |
| --- | --- |
| ATGCCAAC | -0.114 |
| AAAAATAG | -0.163 |
| CAAGAGCA | -0.115 |
| AGCCATCC | -0.0493 |
| CAGAGTGC | -0.0768 |
| ACGAGGAC | -0.109 |
